Measured values collected from several papers.
Every numbered part comes from another study and shows a few of its results, in no order. Positions count from the first letter of the parent shown.
UniProt P00519, sequence (whole entry, unmodified, looked up): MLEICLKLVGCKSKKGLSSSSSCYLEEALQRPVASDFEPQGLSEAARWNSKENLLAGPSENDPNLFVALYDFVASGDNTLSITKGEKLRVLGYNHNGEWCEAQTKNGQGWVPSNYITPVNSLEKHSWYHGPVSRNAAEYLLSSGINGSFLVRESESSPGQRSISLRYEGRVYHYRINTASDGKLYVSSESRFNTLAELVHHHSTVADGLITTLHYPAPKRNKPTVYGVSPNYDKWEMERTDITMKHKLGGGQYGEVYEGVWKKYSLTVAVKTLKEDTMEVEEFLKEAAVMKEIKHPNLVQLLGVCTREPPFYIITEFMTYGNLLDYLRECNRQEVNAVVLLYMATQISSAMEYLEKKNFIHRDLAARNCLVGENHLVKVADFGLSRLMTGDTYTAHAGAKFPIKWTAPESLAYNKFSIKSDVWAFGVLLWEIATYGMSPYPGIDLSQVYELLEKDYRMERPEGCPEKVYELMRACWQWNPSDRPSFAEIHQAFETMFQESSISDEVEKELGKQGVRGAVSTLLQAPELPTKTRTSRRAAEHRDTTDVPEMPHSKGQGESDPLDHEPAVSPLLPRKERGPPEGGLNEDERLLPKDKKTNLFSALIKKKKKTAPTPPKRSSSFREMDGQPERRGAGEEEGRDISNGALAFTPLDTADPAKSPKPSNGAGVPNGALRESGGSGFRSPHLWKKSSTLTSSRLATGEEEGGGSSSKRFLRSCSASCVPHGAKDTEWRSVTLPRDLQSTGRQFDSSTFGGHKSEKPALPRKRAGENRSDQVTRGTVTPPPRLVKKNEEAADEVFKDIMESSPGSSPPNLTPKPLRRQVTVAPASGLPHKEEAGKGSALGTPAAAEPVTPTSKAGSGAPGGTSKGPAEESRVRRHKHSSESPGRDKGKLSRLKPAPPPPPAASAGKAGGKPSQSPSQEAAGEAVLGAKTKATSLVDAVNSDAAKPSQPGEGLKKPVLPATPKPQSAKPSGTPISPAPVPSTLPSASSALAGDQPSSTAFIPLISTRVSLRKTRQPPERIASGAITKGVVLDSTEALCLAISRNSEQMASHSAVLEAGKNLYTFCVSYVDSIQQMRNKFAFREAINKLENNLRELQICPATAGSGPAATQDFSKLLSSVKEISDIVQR
UniProt P06239, sequence (whole entry, looked up): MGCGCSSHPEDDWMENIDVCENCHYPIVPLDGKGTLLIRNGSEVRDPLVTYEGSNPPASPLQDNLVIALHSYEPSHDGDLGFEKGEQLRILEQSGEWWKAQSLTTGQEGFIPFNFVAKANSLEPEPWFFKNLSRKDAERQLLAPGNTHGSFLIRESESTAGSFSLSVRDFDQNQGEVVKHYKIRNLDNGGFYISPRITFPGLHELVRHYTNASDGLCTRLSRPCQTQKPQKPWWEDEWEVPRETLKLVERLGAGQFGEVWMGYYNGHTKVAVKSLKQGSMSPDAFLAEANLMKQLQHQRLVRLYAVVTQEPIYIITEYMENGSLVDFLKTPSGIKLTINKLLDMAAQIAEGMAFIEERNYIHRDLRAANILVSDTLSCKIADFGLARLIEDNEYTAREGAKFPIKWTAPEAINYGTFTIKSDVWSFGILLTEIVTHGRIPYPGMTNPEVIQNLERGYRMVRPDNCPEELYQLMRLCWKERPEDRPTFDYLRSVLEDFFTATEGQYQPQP
UniProt Q9H093, sequence (whole entry, looked up): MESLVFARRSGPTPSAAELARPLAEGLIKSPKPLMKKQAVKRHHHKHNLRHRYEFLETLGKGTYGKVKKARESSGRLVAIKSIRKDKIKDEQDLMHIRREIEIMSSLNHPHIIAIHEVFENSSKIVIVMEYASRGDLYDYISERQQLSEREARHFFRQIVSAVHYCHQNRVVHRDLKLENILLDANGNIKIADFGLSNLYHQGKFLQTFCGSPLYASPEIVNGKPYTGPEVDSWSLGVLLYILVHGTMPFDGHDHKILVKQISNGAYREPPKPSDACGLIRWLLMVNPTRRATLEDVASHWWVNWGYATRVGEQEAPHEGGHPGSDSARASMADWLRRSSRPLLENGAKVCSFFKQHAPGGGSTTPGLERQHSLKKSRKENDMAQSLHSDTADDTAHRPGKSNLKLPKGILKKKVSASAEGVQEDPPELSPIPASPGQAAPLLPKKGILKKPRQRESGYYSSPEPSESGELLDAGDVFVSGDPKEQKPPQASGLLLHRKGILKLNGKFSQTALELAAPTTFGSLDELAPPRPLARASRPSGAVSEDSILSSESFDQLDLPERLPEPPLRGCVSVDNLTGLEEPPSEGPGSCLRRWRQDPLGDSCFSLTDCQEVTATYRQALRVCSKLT
UniProt Q9Y2H9, sequence (whole entry, looked up): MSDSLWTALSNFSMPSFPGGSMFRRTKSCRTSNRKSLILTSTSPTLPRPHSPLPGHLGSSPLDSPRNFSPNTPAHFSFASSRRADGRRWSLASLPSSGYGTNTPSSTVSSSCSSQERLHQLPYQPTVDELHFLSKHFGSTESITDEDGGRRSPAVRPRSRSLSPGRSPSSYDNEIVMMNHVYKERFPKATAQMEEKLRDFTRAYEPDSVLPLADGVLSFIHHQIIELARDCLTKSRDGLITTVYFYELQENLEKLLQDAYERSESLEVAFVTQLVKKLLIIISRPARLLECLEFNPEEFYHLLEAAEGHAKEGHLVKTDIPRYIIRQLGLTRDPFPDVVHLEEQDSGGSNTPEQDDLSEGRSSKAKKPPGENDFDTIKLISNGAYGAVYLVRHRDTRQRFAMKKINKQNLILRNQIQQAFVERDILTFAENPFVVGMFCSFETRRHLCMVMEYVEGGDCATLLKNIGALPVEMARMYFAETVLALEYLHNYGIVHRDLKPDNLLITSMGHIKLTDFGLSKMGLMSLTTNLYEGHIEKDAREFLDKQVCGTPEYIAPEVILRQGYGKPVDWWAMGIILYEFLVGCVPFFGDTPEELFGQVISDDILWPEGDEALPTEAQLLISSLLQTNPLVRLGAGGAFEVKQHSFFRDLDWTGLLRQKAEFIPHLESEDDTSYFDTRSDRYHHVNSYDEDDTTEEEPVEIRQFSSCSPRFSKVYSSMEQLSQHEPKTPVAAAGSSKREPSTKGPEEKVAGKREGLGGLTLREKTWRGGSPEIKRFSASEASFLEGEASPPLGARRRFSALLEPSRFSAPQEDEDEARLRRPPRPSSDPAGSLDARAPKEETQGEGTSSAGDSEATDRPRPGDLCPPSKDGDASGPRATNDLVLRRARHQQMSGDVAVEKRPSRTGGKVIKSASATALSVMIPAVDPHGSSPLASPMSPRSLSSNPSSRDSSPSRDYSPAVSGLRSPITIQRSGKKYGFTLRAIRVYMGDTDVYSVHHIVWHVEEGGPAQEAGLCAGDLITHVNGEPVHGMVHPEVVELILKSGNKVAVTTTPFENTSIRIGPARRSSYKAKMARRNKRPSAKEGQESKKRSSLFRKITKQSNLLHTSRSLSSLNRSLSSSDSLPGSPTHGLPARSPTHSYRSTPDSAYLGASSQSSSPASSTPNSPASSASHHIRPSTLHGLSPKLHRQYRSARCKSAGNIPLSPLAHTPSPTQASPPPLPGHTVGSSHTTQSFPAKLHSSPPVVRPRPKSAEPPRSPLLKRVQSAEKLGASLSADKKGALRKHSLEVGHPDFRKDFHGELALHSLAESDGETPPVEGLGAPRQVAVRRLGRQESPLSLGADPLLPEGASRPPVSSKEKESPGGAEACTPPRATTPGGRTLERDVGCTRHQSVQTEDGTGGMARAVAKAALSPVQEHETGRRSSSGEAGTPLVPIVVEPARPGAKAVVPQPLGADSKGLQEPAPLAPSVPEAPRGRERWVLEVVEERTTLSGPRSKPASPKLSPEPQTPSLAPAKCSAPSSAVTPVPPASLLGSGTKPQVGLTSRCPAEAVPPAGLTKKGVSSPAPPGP
UniProt Q7KZI7, sequence (whole entry, looked up): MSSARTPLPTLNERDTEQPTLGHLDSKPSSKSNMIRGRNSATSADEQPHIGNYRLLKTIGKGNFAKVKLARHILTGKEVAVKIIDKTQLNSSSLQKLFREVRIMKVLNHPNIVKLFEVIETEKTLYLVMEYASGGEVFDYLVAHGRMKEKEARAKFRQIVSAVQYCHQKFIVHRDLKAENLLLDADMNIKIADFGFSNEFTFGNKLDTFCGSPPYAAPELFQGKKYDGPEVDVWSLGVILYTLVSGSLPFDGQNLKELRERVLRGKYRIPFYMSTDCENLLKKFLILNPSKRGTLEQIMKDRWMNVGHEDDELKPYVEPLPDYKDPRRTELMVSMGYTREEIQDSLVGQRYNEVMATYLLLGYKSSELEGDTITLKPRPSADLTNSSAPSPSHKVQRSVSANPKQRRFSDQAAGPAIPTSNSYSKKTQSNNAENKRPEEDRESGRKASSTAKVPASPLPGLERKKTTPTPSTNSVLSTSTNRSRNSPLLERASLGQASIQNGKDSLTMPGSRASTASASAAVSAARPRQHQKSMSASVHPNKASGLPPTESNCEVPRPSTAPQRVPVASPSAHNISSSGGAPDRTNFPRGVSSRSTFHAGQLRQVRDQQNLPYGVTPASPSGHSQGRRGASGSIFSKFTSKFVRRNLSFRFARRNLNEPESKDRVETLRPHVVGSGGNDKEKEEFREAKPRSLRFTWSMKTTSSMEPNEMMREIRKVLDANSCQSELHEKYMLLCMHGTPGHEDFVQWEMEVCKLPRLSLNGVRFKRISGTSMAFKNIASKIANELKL

Block 1
Target: Serine/threonine-protein kinase TAO1 (TAOK1, Homo sapiens, UniProt Q7L7X3)
Effect on: enzyme activity
Action: inhibitor
Tested at: 0.5 µM
Relative to: control
Target sequence (Q7L7X3 1-1001): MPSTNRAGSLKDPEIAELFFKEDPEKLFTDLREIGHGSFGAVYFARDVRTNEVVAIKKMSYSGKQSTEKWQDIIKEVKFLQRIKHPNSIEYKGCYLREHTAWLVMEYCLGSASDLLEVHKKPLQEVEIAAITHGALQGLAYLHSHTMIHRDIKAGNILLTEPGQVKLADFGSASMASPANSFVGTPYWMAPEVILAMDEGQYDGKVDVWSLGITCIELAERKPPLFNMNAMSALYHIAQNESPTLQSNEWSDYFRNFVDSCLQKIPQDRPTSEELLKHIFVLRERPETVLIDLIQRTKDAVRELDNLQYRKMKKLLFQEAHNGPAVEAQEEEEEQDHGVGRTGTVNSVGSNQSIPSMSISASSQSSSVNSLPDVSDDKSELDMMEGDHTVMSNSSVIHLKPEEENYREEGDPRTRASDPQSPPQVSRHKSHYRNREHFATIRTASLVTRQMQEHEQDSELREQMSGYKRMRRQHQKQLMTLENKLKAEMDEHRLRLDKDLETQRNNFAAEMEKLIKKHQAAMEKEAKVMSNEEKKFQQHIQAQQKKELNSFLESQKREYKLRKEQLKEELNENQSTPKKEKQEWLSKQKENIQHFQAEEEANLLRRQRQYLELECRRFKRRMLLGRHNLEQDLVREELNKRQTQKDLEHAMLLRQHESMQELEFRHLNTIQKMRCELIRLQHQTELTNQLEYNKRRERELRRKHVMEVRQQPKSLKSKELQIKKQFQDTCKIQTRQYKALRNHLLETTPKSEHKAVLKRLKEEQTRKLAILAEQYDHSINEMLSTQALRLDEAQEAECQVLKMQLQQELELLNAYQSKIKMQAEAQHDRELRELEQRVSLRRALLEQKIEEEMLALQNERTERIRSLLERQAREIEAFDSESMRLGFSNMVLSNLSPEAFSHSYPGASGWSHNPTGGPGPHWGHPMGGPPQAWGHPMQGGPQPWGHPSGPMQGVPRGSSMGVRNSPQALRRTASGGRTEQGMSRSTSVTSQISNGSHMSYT
Structure (SMILES)	remaining activity
Nc1ncnc2n[nH]c(Nc3ccc(F)cc3)c12	92%
COc1cc2ncnc(Nc3ccc(F)c(Cl)c3)c2cc1OCCCN1CCOCC1	103%
CO[C@H]1C[C@@H]2CC[C@@H](C)[C@@](O)(O2)C(=O)C(=O)N2CCCC[C@H]2C(=O)O[C@H]([C@H](C)C[C@@H]2CC[C@@H](O)[C@H](OC)C2)CC(=O)[C@H](C)/C=C(\C)[C@@H](O)[C@@H](OC)C(=O)[C@H](C)C[C@H](C)/C=C/C=C/C=C/1C	102%
COc1cc2nccc(Oc3ccc(NC(=S)NC(=O)c4ccccc4C)cc3)c2cc1OC	71.3%
O=C(Nc1cccc(Nc2cc(Nc3cccc(C(F)(F)F)c3)ncn2)c1)C1CC1	100%
O=C(O)c1ccc2c3c1cccc3c(=O)n1c3ccccc3nc21	93.3%
Cc1cccc(-c2[nH]c(C(C)(C)C)nc2-c2ccc3c(c2)OCO3)n1	97.6%
Cn1sc(=O)n(Cc2ccccc2)c1=O	88.9%
O=S(=O)(c1cccc2cnccc12)N1CCCNCC1	123%
CCOC(=O)c1c(C)[nH]c(/C=C2\C(=O)Nc3ccccc32)c1C	100%
Cn1c2ccccc2c2c3c(c4c5ccccc5n(CCC#N)c4c21)CNC3=O	43.9%
CN(C)c1ccc(C=C2C(=O)Nc3ccccc32)cc1	94.7%
Cc1nc(-c2ccccc2)c(-c2ccncc2)o1	98.5%
Cc1ccc(NC(=O)c2ccc(CN3CCN(C)CC3)cc2)cc1Nc1nc(-c2cccnc2)cs1	98.5%
Nc1[nH]nc2nc3ccccc3nc12	101%

Block 2
Target: CCNE2, cyclin fold, Cln2 fusion (human)
Method: yeast growth competition, sequencing
Medium: yeast
Notes: strong parent motif
Relative to: not given
Direction: higher = stronger binding
Starting sequence: RBL2 docking peptide (human); STTRRRLFVENDS; partner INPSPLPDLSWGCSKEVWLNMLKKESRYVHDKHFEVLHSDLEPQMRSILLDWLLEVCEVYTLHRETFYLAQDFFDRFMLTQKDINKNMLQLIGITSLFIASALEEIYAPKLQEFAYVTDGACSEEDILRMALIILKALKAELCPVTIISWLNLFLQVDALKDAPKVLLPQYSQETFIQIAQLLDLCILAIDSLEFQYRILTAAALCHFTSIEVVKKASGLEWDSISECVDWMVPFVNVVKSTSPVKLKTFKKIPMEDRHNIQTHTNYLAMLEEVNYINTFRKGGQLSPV
Substitution	normalised enrichment score
D12A	2.58
S13N	3.39
V9S	3.7
F8W	0.92
T2V	3.45
R5E	-0.078
S1M	4.02
E10Q	2.22

Block 3
Structure (SMILES): Cn1nc(C(F)(F)F)cc1-c1cnc(N2CCc3cc(S(=O)(=O)Nc4c(F)cc(Cl)cc4F)cc(N4CCCC4=O)c32)nc1
Method: competition with immobilised ligand
Tested at: 1 µM
target	effect on	remaining binding [%]
Proto-oncogene tyrosine-protein kinase receptor Ret (RET, Homo sapiens, UniProt P07949, V804L)	cell-free assay	100
Serine/threonine-protein kinase PAK 6 (PAK6, Homo sapiens, UniProt Q9NQU5)	cell-free assay	100
Tyrosine-protein kinase Lck (LCK, Homo sapiens, UniProt P06239)	cell-free assay	100
Misshapen-like kinase 1 (MINK1, Homo sapiens, UniProt Q8N4C8)	cell-free assay	99
Cyclin-dependent kinase 8 (CDK8, Homo sapiens, UniProt P49336)	cell-free assay	96
Microtubule-associated serine/threonine-protein kinase 1 (MAST1, Homo sapiens, UniProt Q9Y2H9)	cell-free assay	100
Rhodopsin kinase GRK7 (GRK7, Homo sapiens, UniProt Q8WTQ7)	cell-free assay	85
Cyclin-dependent kinase 4, with cyclin D1 (CDK4, Homo sapiens, UniProt P11802)	cell-free assay	81
Tyrosine-protein kinase JAK1, JH1 (JAK1, Homo sapiens, UniProt P23458)	cell-free assay	100
Serine/threonine-protein kinase TAO2 (TAOK2, Homo sapiens, UniProt Q9UL54)	cell-free assay	100
Serine/threonine-protein kinase 25 (STK25, Homo sapiens, UniProt O00506)	cell-free assay	100
Mitogen-activated protein kinase kinase kinase 2 (MAP3K2, Homo sapiens, UniProt Q9Y2U5)	cell-free assay	95
Ephrin type-B receptor 4 (EPHB4, Homo sapiens, UniProt P54760)	cell-free assay	99
Calcium/calmodulin-dependent protein kinase kinase 1 (CAMKK1, Homo sapiens, UniProt Q8N5S9)	cell-free assay	98
Serine/threonine-protein kinase MARK2 (MARK2, Homo sapiens, UniProt Q7KZI7)	cell-free assay	100
Tyrosine-protein kinase receptor Tie-1 (TIE1, Homo sapiens, UniProt P35590)	cell-free assay	100
Tyrosine-protein kinase ABL1, phosphorylated (ABL1, Homo sapiens, UniProt P00519, E255K)	binding	89
Serine/threonine-protein kinase Nek1 (NEK1, Homo sapiens, UniProt Q96PY6)	cell-free assay	100
Mitogen-activated protein kinase 10 (MAPK10, Homo sapiens, UniProt P53779)	cell-free assay	100
Atypical kinase COQ8B, mitochondrial (COQ8B, Homo sapiens, UniProt Q96D53)	cell-free assay	100
Mitogen-activated protein kinase 7 (MAPK7, Homo sapiens, UniProt Q13164)	cell-free assay	100
NUAK family SNF1-like kinase 2 (NUAK2, Homo sapiens, UniProt Q9H093)	cell-free assay	89

Block 4
Target: Centromere-binding protein 1, full length, N-terminal tag (CBF1, Saccharomyces cerevisiae, UniProt P17106, residues 1-351)
UniProt P17106, sequence (whole entry, looked up): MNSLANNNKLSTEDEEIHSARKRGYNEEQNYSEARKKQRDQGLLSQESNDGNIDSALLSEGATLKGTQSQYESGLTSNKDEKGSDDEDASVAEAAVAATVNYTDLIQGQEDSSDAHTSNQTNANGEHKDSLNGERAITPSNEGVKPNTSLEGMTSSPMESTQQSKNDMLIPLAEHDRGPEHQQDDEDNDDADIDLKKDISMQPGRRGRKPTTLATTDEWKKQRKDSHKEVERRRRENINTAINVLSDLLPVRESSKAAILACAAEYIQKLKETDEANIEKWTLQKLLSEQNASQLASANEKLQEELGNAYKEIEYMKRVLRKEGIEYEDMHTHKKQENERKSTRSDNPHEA
Method: protein-binding microarray
Molecule type: double-stranded DNA, one strand shown
Medium: in vitro
Tested at: 0.8 µM
Notes: whole 60-bp probe, no competitor
Direction: higher = stronger binding
Shared flanks, not repeated: … GTCTTGATTCGCTTGACGCTGCTG
Oligonucleotide	fluorescence intensity [a.u.]
TGTACGAAGCTATGGCACGAGAATATAGTAGTTAGG	620
TGTACGAAGCTATGTGGGGTGATTATAGTAGTTAGG	533
GAACTTGTCCCATGTCAGGTGTAAAACTGACGGTAG	1200
GAACCACACAATCATCATGATGTTTTAGAGCTTTAG	496
GAATGTGGGTGTGGTGTGGTGTGGGTGTGGGTGTAG	529
GAAAGAAGTGGCAACAACATCAGCAAAAGGGCATAG	503
CTATTAGCACCATCGCGCGTGCATCACTGCATGTTC	556
CCTAACTACTATAAAGTTGTGACATAGCTTCGTACA	532

Excerpt of the above (block 2):
Substitution	normalised enrichment score
E10Q	2.22
S13N	3.39
D12A	2.58
F8W	0.92
R5E	-0.078
T2V	3.45
